Measurements pooled from the literature.
Values joined by “and” are separate records of one study, mostly repeats; a detail may differ. ± gives the spread as reported.
TDP1: Tyrosyl-DNA phosphodiesterase 1 (TDP1, Homo sapiens, UniProt Q9NUW8)
UniProt Q9NUW8, sequence (whole entry, looked up): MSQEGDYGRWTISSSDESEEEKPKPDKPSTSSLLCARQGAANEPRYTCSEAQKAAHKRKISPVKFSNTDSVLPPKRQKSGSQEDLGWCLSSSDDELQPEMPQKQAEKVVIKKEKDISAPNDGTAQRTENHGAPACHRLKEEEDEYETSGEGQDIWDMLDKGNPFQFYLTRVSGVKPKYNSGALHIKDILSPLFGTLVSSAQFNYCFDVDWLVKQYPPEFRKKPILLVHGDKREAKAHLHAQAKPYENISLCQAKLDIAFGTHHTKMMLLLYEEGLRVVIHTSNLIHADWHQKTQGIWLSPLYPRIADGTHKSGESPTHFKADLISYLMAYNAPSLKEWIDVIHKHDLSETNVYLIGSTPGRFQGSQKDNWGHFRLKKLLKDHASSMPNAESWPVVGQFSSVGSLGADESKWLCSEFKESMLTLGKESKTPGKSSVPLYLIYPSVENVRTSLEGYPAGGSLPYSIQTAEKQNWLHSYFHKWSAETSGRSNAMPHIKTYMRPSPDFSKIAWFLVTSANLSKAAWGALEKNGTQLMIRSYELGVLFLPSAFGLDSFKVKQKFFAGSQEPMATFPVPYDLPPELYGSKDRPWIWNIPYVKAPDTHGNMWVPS
UniProt Q92887, sequence (whole entry, looked up): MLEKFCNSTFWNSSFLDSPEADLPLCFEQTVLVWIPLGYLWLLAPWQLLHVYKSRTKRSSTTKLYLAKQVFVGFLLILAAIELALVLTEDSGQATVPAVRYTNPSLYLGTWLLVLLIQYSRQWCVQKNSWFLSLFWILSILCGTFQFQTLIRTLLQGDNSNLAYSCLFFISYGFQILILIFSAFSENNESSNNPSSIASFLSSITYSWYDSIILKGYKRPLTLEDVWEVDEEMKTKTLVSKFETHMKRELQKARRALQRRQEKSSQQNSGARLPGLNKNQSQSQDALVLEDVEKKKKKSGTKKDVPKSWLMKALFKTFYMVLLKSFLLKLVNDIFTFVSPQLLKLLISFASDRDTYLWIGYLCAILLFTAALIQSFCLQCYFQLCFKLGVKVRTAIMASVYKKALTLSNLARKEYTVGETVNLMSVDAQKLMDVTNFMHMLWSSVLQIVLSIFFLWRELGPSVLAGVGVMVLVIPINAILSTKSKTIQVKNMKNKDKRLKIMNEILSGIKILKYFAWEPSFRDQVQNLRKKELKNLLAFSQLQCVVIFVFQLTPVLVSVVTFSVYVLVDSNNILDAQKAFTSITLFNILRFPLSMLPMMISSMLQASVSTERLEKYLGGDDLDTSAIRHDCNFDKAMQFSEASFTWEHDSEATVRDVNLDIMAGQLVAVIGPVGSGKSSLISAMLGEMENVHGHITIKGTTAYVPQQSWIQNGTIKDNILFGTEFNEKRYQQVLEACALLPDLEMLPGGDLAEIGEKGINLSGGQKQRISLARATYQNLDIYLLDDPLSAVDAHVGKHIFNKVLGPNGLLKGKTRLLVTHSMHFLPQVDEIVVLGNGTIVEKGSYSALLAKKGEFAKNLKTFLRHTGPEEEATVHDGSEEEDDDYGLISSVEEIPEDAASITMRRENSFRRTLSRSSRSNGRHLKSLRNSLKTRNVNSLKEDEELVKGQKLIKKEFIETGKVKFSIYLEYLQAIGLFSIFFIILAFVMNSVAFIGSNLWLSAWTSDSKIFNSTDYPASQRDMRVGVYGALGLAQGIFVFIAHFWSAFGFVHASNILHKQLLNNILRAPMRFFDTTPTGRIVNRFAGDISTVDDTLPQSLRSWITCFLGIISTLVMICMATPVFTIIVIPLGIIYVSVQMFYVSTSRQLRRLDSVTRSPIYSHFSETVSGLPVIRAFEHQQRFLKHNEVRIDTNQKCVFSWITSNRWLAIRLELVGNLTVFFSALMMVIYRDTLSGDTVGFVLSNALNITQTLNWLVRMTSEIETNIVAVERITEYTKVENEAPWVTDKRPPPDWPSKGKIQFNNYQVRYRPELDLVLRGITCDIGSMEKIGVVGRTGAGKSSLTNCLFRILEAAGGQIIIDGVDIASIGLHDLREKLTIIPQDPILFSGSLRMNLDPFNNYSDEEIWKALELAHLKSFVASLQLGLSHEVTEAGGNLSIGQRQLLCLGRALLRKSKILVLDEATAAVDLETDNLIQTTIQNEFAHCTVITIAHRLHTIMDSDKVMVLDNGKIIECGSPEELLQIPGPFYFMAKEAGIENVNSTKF

Substance | tested on | test | system | conditions | endpoint | result
C[C@@H](O)[C@@H]1NC(=O)[C@H](CCCCN)NC(=O)[C@@H](Cc2c[nH]c3ccccc23)NC(=O)[C@H](Cc2ccc(O)cc2)NC(=O)[C@@H](NC(=O)[C@@H](Cc2ccccc2)NC(=O)CN2CCN(CC(=O)O)CCN(CC(=O)O)CCN(CC(=O)O)CC2)CSSC[C@@H](C(=O)N[C@H](CO)[C@@H](C)O)NC1=O [gallium-67 labelled] | – | gamma counting | ICR mice, male, bone | iv, 11 kBq/mouse, 3 h | tissue uptake | 1.62 ± 0.91 %ID/g
CSc1nc2ccccc2cc1C=NOCc1ccc(-c2nc3cc(-c4ccccc4)ccn3c2Nc2ccc(C(=O)O)cc2)cc1 | TDP1 | enzyme activity, inhibitor | – | 100 µM, unpurified compound | inhibition | 50.6%
CC(C)C[C@@H](NC(=O)[C@@H](CC(C)C)NC(=O)[C@@H](CC(=O)O)NC(=O)[C@@H](CC(C)C)NC(=O)[C@@H](CC(C)C)NC(=O)[C@@H](CC(C)C)NC(=O)[C@H](NC(=O)[C@@H](CC(=O)O)NC(=O)[C@H](NC(=O)[C@H]1CCCN1C(=O)[C@@H](Cc1ccccc1)NC(=O)[C@@H](CC(C)C)NC(=O)[C@@H](CC(C)C)NC(=O)[C@@H](CC(=O)O)NC(=O)[C@@H](CC(C)C)NC(=O)[C@@H](Cc1ccc(O)cc1)NC(=O)[C@@H](C)NC(=O)[C@@H](CCCNC(=N)N)NC(=O)[C@@H](Cc1c[nH]c2ccccc12)NC(=O)[C@H]1CCCN1C(=O)[C@@H](CC(N)=O)NC(=O)[C@@H](CCC(N)=O)NC(=O)[C@@H](CC(=O)O)NC(=O)[C@@H](CC(=O)O)NC(=O)[C@@H](CSC1CC(=O)N(CCNC(=O)CN2CCN(CC(=O)O)CCN(CC(=O)O)CC2)C1=O)NC(=O)[C@@H](C)N)[C@H](C)O)[C@H](C)O)C(=O)N[C@H](Cc1c[nH]c2ccccc12)C(=O)O (stereo partly shown) [copper-64 labelled] | – | – | C57BL/6 mice, female, B16-F10 melanoma, tumor | intravenous, 24 h | tissue uptake | 11.4 %ID/g
CCCC[C@H](NC(=O)COCCOCCNC(=O)CN1CCN(CC(=O)O)CCN(CC(=O)O)CC1)C(=O)N[C@H]1CC(=O)NCCCC[C@@H](C(N)=O)NC(=O)[C@H](Cc2c[nH]c3ccccc23)NC(=O)[C@H](CCCNC(=N)N)NC(=O)[C@@H](Cc2ccccc2)NC(=O)[C@H](Cc2c[nH]cn2)NC1=O [technetium-99m labelled] | – | – | C57 mouse, brain | intravenous, 0.037 MBq, 2 h | tissue uptake | 0.03 ± 0.01 %ID/g
ABCC2 (Homo sapiens, UniProt Q92887) | O=C(c1ccc(OCCN2CCCCC2)cc1)c1c(-c2ccc(O)cc2)sc2cc(O[C@@H]3O[C@H](C(=O)O)[C@@H](O)[C@H](O)[C@H]3O)ccc12 | steady-state kinetics | Sf9 vesicles | pH 7, 37 °C, not purified, added: ATP | Km | 18.6 µM
CCCC[C@H](NC(=O)CCCCCCCNC(=O)CN1CCN(CC(=O)O)CCN(CC(=O)O)CC1)C(=O)N[C@H]1CC(=O)NCCCC[C@@H](C(N)=O)NC(=O)[C@H](Cc2c[nH]c3ccccc23)NC(=O)[C@H](CCCNC(=N)N)NC(=O)[C@@H](Cc2ccccc2)NC(=O)[C@H](Cc2c[nH]cn2)NC1=O [technetium-99m labelled] | – | – | C57 mouse, intestine | intravenous, 0.037 MBq, 24 h | tissue uptake | 1.48 ± 0.97 %ID
N#CSCc1ccc(C=NOCc2ccc3nc(-c4ccccc4)c(Nc4ccc(C(=O)O)cc4)n3c2)o1 | TDP1 | enzyme activity, inhibitor | – | 100 µM, unpurified compound | inhibition | 91.2%
CC(C)C[C@H](NC(=O)[C@@H](CCCCNC(=O)[C@@H](Cc1ccccc1)NC(=O)CCCCCNC(=O)CN1CCN(CC(=O)O)CCN(CC(=O)O)CCN(CC(=O)O)CC1)NC(=O)[C@H](Cc1ccc(O)cc1)NC(=O)[C@H](CO)NC(=O)[C@H](Cc1c[nH]c2ccccc12)NC(=O)[C@H](Cc1c[nH]cn1)NC(=O)[C@@H]1CCC(=O)N1)C(=O)N[C@@H](CCCNC(=N)N)C(=O)N1CCC[C@H]1C(=O)NCC(N)=O [indium-111 labelled] | – | – | female athymic nude mice, kidneys | intravenous, 0.037 MBq, 2 h | tissue uptake | 7.58 ± 1.1 %ID/g
CC(C)C[C@H](NC(=O)[C@H](Cc1ccc(O)cc1)NC(=O)[C@@H](CCCNC(=N)N)NC(=O)[C@@H](CO)NC(=O)[C@H](Cc1ccccc1)NC(=O)[C@H](CC1CCCCC1)NC(=O)[C@H](CC(=O)O)NC(=O)CN1CCN(CC(=O)O)CCN(CC(=O)O)CCN(CC(=O)O)CC1)C(=O)N[C@@H](Cc1c[nH]c2ccccc12)C(=O)N[C@@H](CO)C(=O)O [copper-64 labelled] | – | – | human, kidney | concentration not given, 3 h | activity concentration | 8590 Bq/mL and 6840 Bq/mL and 7000 Bq/mL and 5310 Bq/mL and 5630 Bq/mL and 4950 Bq/mL
C=C1CC[C@H](OCCCNC(=O)CCOCCOCCOCCOCCOCCOCCOCCOCCOCCOCCOCCOCCOCCOCCOCCOCCOCCOCCOCCOCCOCCOCCOCCOCCOCCOCCOCCOCCOCCOCCOCCOCCOCCOCCOCCOCCNC(=O)CCN2C(=O)CC(SC[C@H](NC(=O)[C@H](Cc3ccccc3)NC(=O)[C@H](CC(N)=O)NC(=O)[C@H](Cc3c[nH]cn3)NC(=O)[C@@H](NC(=O)[C@H](CC(=O)O)NC(=O)[C@H](CCC(N)=O)NC(=O)[C@H](CC(C)C)NC(=O)[C@H](CCCCN)NC(=O)[C@H](CCCCN)NC(=O)[C@H](CCCNC(=N)N)NC(=O)[C@H](CC(C)C)NC(=O)[C@H](Cc3c[nH]c4ccccc34)NC(=O)[C@H](CCC(=O)O)NC(=O)[C@@H](NC(=O)[C@H](CCCNC(=N)N)NC(=O)[C@H](CCC(=O)O)NC(=O)[C@H](CCSC)NC(=O)[C@H](CO)NC(=O)[C@H](CC(N)=O)NC(=O)[C@H](CC(C)C)NC(=O)[C@H](Cc3c[nH]cn3)NC(=O)[C@H](CCCCN)NC(=O)CNC(=O)[C@H](CC(C)C)NC(=O)[C@H](CC(N)=O)NC(=O)[C@H](Cc3c[nH]cn3)NC(=O)[C@H](CCSC)NC(=O)[C@H](CC(C)C)NC(=O)[C@H](CCC(N)=O)NC(=O)[C@@H](NC(=O)[C@H](CCC(=O)O)NC(=O)[C@H](CO)NC(=O)[C@@H](NC(=O)[C@@H](N)CO)C(C)C)[C@@H](C)CC)C(C)C)C(C)C)C(=O)O)C2=O)C/C1=C/C=C1\CCC[C@]2(C)[C@@H]([C@H](C)CCCC(C)(C)O)CC[C@@H]12 (stereo partly shown) | – | – | male Sprague-Dawley rat, plasma | intravenous, 100 µg/kg, single dose | clearance | 0.402 mL/min/kg

Repeated from above:
Substance | tested on | test | system | conditions | endpoint | result
CCCC[C@H](NC(=O)CCCCCCCNC(=O)CN1CCN(CC(=O)O)CCN(CC(=O)O)CC1)C(=O)N[C@H]1CC(=O)NCCCC[C@@H](C(N)=O)NC(=O)[C@H](Cc2c[nH]c3ccccc23)NC(=O)[C@H](CCCNC(=N)N)NC(=O)[C@@H](Cc2ccccc2)NC(=O)[C@H](Cc2c[nH]cn2)NC1=O [technetium-99m labelled] | – | – | C57 mouse, intestine | intravenous, 0.037 MBq, 24 h | tissue uptake | 1.48 ± 0.97 %ID
